Assay results of several laboratories.
Values joined by “and” are separate records of one study, mostly repeats; a detail may differ. Numbers after ± are the reported error.
UCHL1: Ubiquitin carboxyl-terminal hydrolase isozyme L1 (UCHL1, Homo sapiens, UniProt P09936)
Chain of UniProt P09936 (whole entry, looked up): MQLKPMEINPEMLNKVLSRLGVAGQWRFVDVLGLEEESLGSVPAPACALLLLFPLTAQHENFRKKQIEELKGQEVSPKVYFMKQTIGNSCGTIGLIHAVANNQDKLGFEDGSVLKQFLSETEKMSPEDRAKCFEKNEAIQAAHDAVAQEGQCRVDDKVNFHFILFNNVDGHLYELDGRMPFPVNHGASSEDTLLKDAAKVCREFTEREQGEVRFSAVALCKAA

SMILES | target or system | assay | system | conditions | scale | quantity | result
CCn1c(-c2nonc2N)nc2c(C#CC(C)(C)O)ncc(OC[C@H]3CCCNC3)c21 | MDA-MB-468 | flow cytometry PI |  | EC60, 72 h |  | sub-G0 cells | 0.9%
CCn1nc(C)c(CN2CCCC(C(=O)c3cccc(OC(C)C)c3)C2)c1C (stereo not drawn) | Trypanosoma cruzi | reporter translation, Renilla luciferase mRNA translation | cell-free extract | 40 µM | reference: DMSO | inhibition | -7.3%
CCOC(=O)c1c(C)nc2ccc(-c3cccc(F)c3)cc2c1O | MDA-MB-468 | DCFDA flow cytometry |  | concentration not given, 48 h | reference: untreated | ROS content | 30%
CCCN1CCN(c2ccc3nc(-c4ccc5nc(-c6cc(OC)ccc6OC)[nH]c5c4)[nH]c3c2)CC1 | MDA-MB-468 | SRB |  | 10 µM, 48 h |  | growth percent | 114%
CSc1nc(-c2ccc(Cl)cc2)c2c(NC(=O)c3ccccc3)nnc-2[nH]1 | MDA-MB-468 | NCI60 SRB |  | 10 µM |  | growth percent | 100%
C#C[C@@]1(O)[C@@H](CO)O[C@@H](n2cc(I)c3c(N)ncnc32)[C@@H]1O | MDA-MB-468 | SRB |  | NCI-60 screen |  | TGI | 421 nM and 746 nM
CN1CCN(c2ccc3[nH]c(-c4ccc5[nH]c(-c6ccc(C(F)(F)F)cc6)nc5c4)nc3c2)CC1 | MDA-MB-468 | SRB |  | 10 µM, 48 h |  | growth percent | 50.6%
NNc1nc(-c2ccc(Cl)cc2)c2c(NC(=O)c3ccccc3)nnc-2[nH]1 | MDA-MB-468 | NCI60 SRB |  | 10 µM |  | growth percent | 118%
CCCC(CCC)C(=O)OCc1cn(-c2c3ccccc3nc3ccccc23)nn1 | MDA-MB-468 | NCI60 single-dose screen |  | 10 µM |  | growth percentage | 88.1%
O=C1NCCc2[nH]c(-c3ccncc3)cc21 | MDA-MB-468 | MTS |  | NCI60 panel |  | IC50 | 1770 nM
O=C(CCl)Cc1ccc(F)cc1F | UCHL1 | covalent, intact protein LC-MS |  | 12.5 µM |  | labelling | 20.9%
CC(C)[C@H](NC(=O)c1cc(Cl)ccc1OCCNC(=O)OC(C)(C)C)C(=O)Nc1ccc([N+](=O)[O-])cc1Cl | MDA-MB-468 |  |  | 0.1 to 10 µM, 2 weeks |  | colony formation | inhibited
CCOc1ccc(-c2nc3cc(-c4nc5cc(N6CCN(C)CC6)ccc5[nH]4)ccc3[nH]2)cc1OCC | MDA-MB-468 | SRB |  | 10 µM, 48 h |  | growth percent | -44.5%
Cc1cc(C)n(-c2nc(-c3ccc(Cl)cc3)c3c(NC(=O)c4ccccc4)nnc-3[nH]2)n1 | MDA-MB-468 | NCI60 SRB |  | 10 µM |  | growth percent | 102%
CCCN1CCN(c2ccc3[nH]c(-c4ccc5[nH]c(-c6cc(OC)c(OC)c(OC)c6)nc5c4)nc3c2)CC1 | MDA-MB-468 | SRB |  | 10 µM, 48 h |  | growth percent | 47.1%
Nc1ccn([C@@H]2O[C@H](CO)[C@@H](O)C2(F)F)c(=O)n1 | MDA-MB-468 | cell proliferation, CCK-8 |  | 4 d | reference: untreated | ED50 | 10.3 ± 6.8 nM
CCS(=O)(=O)c1ccc(CC(=O)Nc2cc(Cl)c(-c3ccccc3OC(F)(F)F)c(Cl)c2)cc1 | MDA-MB-468 | RNA-seq, refers to: HMGCR, SQLE |  | concentration not given, 24 h |  | cholesterol-biosynthesis gene expression | decreased
CCOC(=O)c1c(C)nc2ccc(-c3ccc(F)cc3)cc2c1O | MDA-MB-468 | DCFDA flow cytometry |  | concentration not given, 48 h | reference: untreated | ROS content | 30%

SMILES | target or system | assay | system | conditions | scale | quantity | result
COc1ccc2c(n1)CCN(C(=O)[C@H]1C[C@@H](CC(=O)O)C1)[C@H]2C(=O)Nc1cc(F)c2c(c1)CCC2(C)C | MDA-MB-468 |  |  | 5 µM |  | colony formation | no effect
C#C[C@@]1(O)[C@@H](CO)O[C@@H](n2ccc3c(N)ncnc32)[C@@H]1O | MDA-MB-468 | SRB |  | NCI-60 screen |  | TGI | 3330 nM
COc1cc(/C=C/C(=O)N2CCC=CC2=O)cc(OC)c1OC | MDA-MB-468 | quantitative RT-PCR, refers to: PRDX5 |  | 30 µM, 8 h | reference: untreated cells | mRNA level | 118 ± 11%
Cn1cncc1C1=CN(c2ncnc3[nH]cnc23)CCS1 | MDA-MB-468 |  |  |  |  | GI50 | 6.2 µM
Cc1cc(-c2ccccc2)n(-c2nc(-c3ccc(Cl)cc3)c3c(NC(=O)c4ccccc4)nnc-3[nH]2)n1 | MDA-MB-468 | NCI60 SRB |  | 10 µM |  | growth percent | 72%
O=C1NC(c2ccccc2)(c2ccccc2)C(=O)N1Cc1cn(-c2cc3ccccc3oc2=O)nn1 | MDA-MB-468 | NCI60 single-dose screen |  | 10 µM |  | growth percentage | 86.1%
COc1ccc(OC)c(-c2nc3ccc(-c4nc5ccc(N6CCN(C)CC6)cc5[nH]4)cc3[nH]2)c1 | MDA-MB-468 | SRB |  | 10 µM, 48 h |  | growth percent | 99.7%
Cn1cc(-n2cnc3c(NCc4nc5cc(Cl)c(Cl)cc5[nH]4)nc(N4CCOCC4)nc32)cn1 | MDA-MB-468 | cell viability, CellCounting-Lite |  | 2.743 nM, 37 °C | higher = more viable cells | luminescence signal | 413000 a.u. and 410000 a.u. and 385000 a.u.
O=C1NC(c2ccccc2)(c2ccccc2)C(=O)N1Cc1cn(-c2c3ccccc3nc3ccccc23)nn1 | MDA-MB-468 | NCI60 single-dose screen |  | 10 µM |  | growth percentage | 38.2%
NC1(c2ccc(-c3nc4ccn5c(=O)[nH]nc5c4cc3-c3ccccc3)cc2)CCC1 | MDA-MB-468 | cell viability |  |  |  | EC60 | 2.2 µM
O=C(Nc1nnc2n3c(nc(-c4ccc(Cl)cc4)c1-2)SCC3=O)c1ccccc1 | MDA-MB-468 | NCI60 SRB |  | 10 µM |  | growth percent | 97%
COc1cnc2cccc(N3CCc4c(cc(Cn5ccnc5C)cc4-c4cn(C)nc4C(F)(F)F)C3=O)c2c1 | MDA-MB-468 | cell growth, inhibitor |  | 120 h |  | EC50 | 10.2 µM
Cc1cc(=O)[nH]c(=O)n1Cc1cn(-c2cc3ccccc3oc2=O)nn1 | MDA-MB-468 | NCI60 single-dose screen |  | 10 µM |  | growth percentage | 111%
N#CC(=Cc1cccc(Cl)c1Cl)C(=O)NCc1ccccc1 | UCHL1 | covalent, intact protein LC-MS |  | 12.5 µM |  | labelling | 44.6%
CCOC(=O)CSc1nc(-c2ccc(Cl)cc2)c2c(NC(=O)c3ccccc3)nnc-2[nH]1 | MDA-MB-468 | NCI60 SRB |  | 10 µM |  | growth percent | 96.8%
C#C[C@@]1(O)[C@@H](CO)O[C@@H](n2cc(Cl)c3c(N)ncnc32)[C@@H]1O | MDA-MB-468 | SRB |  | NCI-60 screen |  | TGI | 751 nM and 451 nM
CCCCN1CCN(c2ccc3[nH]c(-c4ccc5[nH]c(-c6cc(OC)c(OC)c(OC)c6)nc5c4)nc3c2)CC1 | MDA-MB-468 | SRB |  | 10 µM, 48 h |  | growth percent | 45.7%
CCN(CC)c1ccc(C=NNC(=O)CSc2nc3ccccc3c(=O)n2Cc2ccc(S(N)(=O)=O)cc2)c(O)c1 | MDA-MB-468 | NCI five-dose screen |  |  |  | TGI | 5030 nM

Repeated from above:
SMILES | target or system | assay | system | conditions | scale | quantity | result
O=C(Nc1nnc2n3c(nc(-c4ccc(Cl)cc4)c1-2)SCC3=O)c1ccccc1 | MDA-MB-468 | NCI60 SRB |  | 10 µM |  | growth percent | 97%
COc1cnc2cccc(N3CCc4c(cc(Cn5ccnc5C)cc4-c4cn(C)nc4C(F)(F)F)C3=O)c2c1 | MDA-MB-468 | cell growth, inhibitor |  | 120 h |  | EC50 | 10.2 µM
Cc1cc(=O)[nH]c(=O)n1Cc1cn(-c2cc3ccccc3oc2=O)nn1 | MDA-MB-468 | NCI60 single-dose screen |  | 10 µM |  | growth percentage | 111%
N#CC(=Cc1cccc(Cl)c1Cl)C(=O)NCc1ccccc1 | UCHL1 | covalent, intact protein LC-MS |  | 12.5 µM |  | labelling | 44.6%
CCOC(=O)CSc1nc(-c2ccc(Cl)cc2)c2c(NC(=O)c3ccccc3)nnc-2[nH]1 | MDA-MB-468 | NCI60 SRB |  | 10 µM |  | growth percent | 96.8%
C#C[C@@]1(O)[C@@H](CO)O[C@@H](n2cc(Cl)c3c(N)ncnc32)[C@@H]1O | MDA-MB-468 | SRB |  | NCI-60 screen |  | TGI | 751 nM and 451 nM
